Published values collected from several papers.
Lines come from different studies, so protocols differ. ± marks the error that the study gave.

CCCC[C@H](NC(=O)CNC(=O)CNC(=O)c1ccc(NN)nc1)C(=O)N[C@H]1CC(=O)NCCCC[C@@H](C(N)=O)NC(=O)[C@H](Cc2c[nH]c3ccccc23)NC(=O)[C@H](CCCNC(=N)N)NC(=O)[C@@H](Cc2ccccc2)NC(=O)[C@H](Cc2c[nH]cn2)NC1=O [technetium-99m labelled]  uptake (C57 mouse, B16/F1 melanoma, stomach; 2 h, with: NDP-MSH 6.07 nmol blockade): 0.49 ± 0.22 %ID/g
C[C@@H](O)[C@@H]1NC(=O)[C@H](CCCCN)NC(=O)[C@@H](Cc2c[nH]c3ccccc23)NC(=O)[C@H](Cc2ccc(O)cc2)NC(=O)[C@@H](NC(=O)[C@@H](Cc2ccccc2)NC(=O)c2ccc(C[C@H]3CN(CC(=O)O)CCN(CC(=O)O)CCN(CC(=O)O)CCN3CC(=O)O)cc2)CSSC[C@@H](C(=O)N[C@H](CO)[C@@H](C)O)NC1=O [gallium-67 labelled]  biodistribution (ICR mouse, spleen and bone; intravenous, dose not given, 1, 3 and 1 h; reference: [67Ga]Ga-DOTATOC): no effect
N=C(N)NCCC[C@@H]1NC(=O)[C@H](CCCCNC(=O)CC[C@H](NC(=O)CCOCCOCCOCCOCCNC(=O)CC[C@H](NC(=O)CN2CCN(CC(=O)O)CCN(CC(=O)O)CCN(CC(=O)O)CC2)C(=O)NCCOCCOCCOCCOCCC(=O)N[C@@H](CCC(=O)NCCCC[C@@H]2NC(=O)[C@@H](Cc3ccccc3)NC(=O)[C@H](CC(=O)O)NC(=O)CNC(=O)[C@H](CCCNC(=N)N)NC2=O)C(=O)NCCCC[C@@H]2NC(=O)[C@@H](Cc3ccccc3)NC(=O)[C@H](CC(=O)O)NC(=O)CNC(=O)[C@H](CCCNC(=N)N)NC2=O)C(=O)NCCCC[C@@H]2NC(=O)[C@@H](Cc3ccccc3)NC(=O)[C@H](CC(=O)O)NC(=O)CNC(=O)[C@H](CCCNC(=N)N)NC2=O)NC(=O)[C@@H](Cc2ccccc2)NC(=O)[C@H](CC(=O)O)NC(=O)CNC1=O [indium-111 labelled]  tissue uptake (athymic nude mice, female, U-87 MG glioma xenograft, U-87 MG tumour; intravenous, 3 µCi, 4 h): 8.49 ± 5.28 %ID/g
CSCC[C@H](NC(=O)[C@H](CC(C)C)NC(=O)[C@H](Cc1c[nH]cn1)NC(=O)CNC(=O)[C@@H](NC(=O)[C@H](C)NC(=O)[C@H](Cc1c[nH]c2ccccc12)NC(=O)[C@H](CCC(N)=O)NC(=O)[C@H](CC(N)=O)NC(=O)CNC(=O)[C@H](Cc1ccc(O)cc1)NC(=O)[C@H](CCCNC(=N)N)NC(=O)[C@H](CCC(N)=O)NC(=O)[C@@H]1CCCN1C(=O)CN1CCN(CC(=O)O)CCN(CC(=O)O)CCN(CC(=O)O)CC1)C(C)C)C(N)=O [indium-111 labelled]  tissue uptake (Swiss nu/nu mouse, male, PC-3 tumour xenograft, colon; intravenous, 10 pmol, 24 h): 0.6 ± 0.3 %ID/g
CCCC[C@H](NC(=O)CCCCCCCNC(=O)c1ccc(NN)nc1)C(=O)N[C@H]1CC(=O)NCCCC[C@@H](C(N)=O)NC(=O)[C@H](Cc2c[nH]c3ccccc23)NC(=O)[C@H](CCCNC(=N)N)NC(=O)[C@@H](Cc2ccccc2)NC(=O)[C@H](Cc2c[nH]cn2)NC1=O [technetium-99m labelled]  uptake (C57 mouse, B16/F1 melanoma, liver; intravenous, 0.5 h): 3.19 ± 0.39 %ID/g
N=C(N)NCCC[C@@H]1NC(=O)[C@H](CCCCNC(=O)CC[C@H](NC(=O)CCOCCOCCOCCOCCNC(=O)CN2CCN(CC(=O)O)CCN(CC(=O)O)CCN(CC(=O)O)CC2)C(=O)NCCCC[C@@H]2NC(=O)[C@@H](Cc3ccccc3)NC(=O)[C@H](CC(=O)O)NC(=O)CNC(=O)[C@H](CCCNC(=N)N)NC2=O)NC(=O)[C@@H](Cc2ccccc2)NC(=O)[C@H](CC(=O)O)NC(=O)CNC1=O [indium-111 labelled]  tissue uptake (female athymic nude mice, kidney; intravenous, 3 µCi, 24 h, U-87 MG glioma xenograft): 2.79 ± 0.33 %ID/g
CC(C)C[C@@H]1NC(=O)[C@H](C(C)C)NC(=O)[C@H](CO)NC(=O)CNC(=O)CNC(=O)[C@H](CCCNC(=N)N)NC(=O)[C@@H]2CCCN2C(=O)[C@@H](NC(=O)CC[C@H](NC(=O)c2ccc(N(C)Cc3cnc4nc(N)nc(N)c4n3)cc2)C(=O)O)C(C)(C)SSC[C@@H](C(=O)O)NC(=O)CNC(=O)[C@H]([C@@H](C)O)NC(=O)[C@H](C(C)C)NC1=O  degradation rate constant (HPLC; Acetate buffer; pH 4.0, 70 °C): 0.0032 h⁻¹
CC(C)C[C@H](NC(=O)[C@@H]1CCCN1C(=O)[C@H](CCCCN)NC(=O)[C@@H](N)CO)C(=O)N1CCC[C@H]1C(=O)N[C@@H](CCC(=O)O)C(=O)N[C@H](C(=O)N[C@H](C(=O)N[C@@H](CC(=O)O)C(=O)N[C@@H](CCC(=O)O)C(=O)N[C@@H](Cc1ccc(O)cc1)C(=O)N[C@@H](Cc1cn(CCOCCOCCOCCNC(=O)CCc2ccc(O)c(CN(CCN(CC(=O)O)Cc3cc(CCC(=O)NCCCC[C@H](NC(=O)N[C@@H](CCC(=O)O)C(=O)O)C(=O)O)ccc3O)CC(=O)O)c2)nn1)C(=O)O)[C@@H](C)O)C(C)C [gallium-68 labelled]  SUV (NMRI nu/nu mouse, LNCaP xenograft, femur; 135.34 nmol/kg, low molar activity): 0.04 g/g
N=C(N)NCCC[C@@H]1NC(=O)[C@H](CCCCNC(=O)CCOCCOCCOCCOCCNC(=O)CN2CCN(CC(=O)O)CCN(CC(=O)O)CCN(CC(=O)O)CC2)NC(=O)[C@@H](Cc2ccccc2)NC(=O)[C@H](CC(=O)O)NC(=O)CNC1=O [indium-111 labelled]  tissue uptake (female athymic nude mice, intestine; intravenous, 3 µCi, 1 h, U-87 MG glioma xenograft): 1.24 ± 0.09 %ID/g
C[C@@H](O)[C@H](NC(=O)[C@@H]1CSSC[C@H](NC(=O)[C@@H](Cc2ccccc2)NC(=O)CN2CCN(CC(N)=O)CCN(CC(N)=O)CCN(CC(N)=O)CC2)C(=O)N[C@@H](Cc2ccc(O)cc2)C(=O)N[C@H](Cc2c[nH]c3ccccc23)C(=O)N[C@@H](CCCCN)C(=O)N[C@@H]([C@@H](C)O)C(=O)N1)C(=O)O [lead-212 labelled]  survival (athymic nude mice; 20 µCi single dose): 100%

A few entries again:
N=C(N)NCCC[C@@H]1NC(=O)[C@H](CCCCNC(=O)CC[C@H](NC(=O)CCOCCOCCOCCOCCNC(=O)CC[C@H](NC(=O)CN2CCN(CC(=O)O)CCN(CC(=O)O)CCN(CC(=O)O)CC2)C(=O)NCCOCCOCCOCCOCCC(=O)N[C@@H](CCC(=O)NCCCC[C@@H]2NC(=O)[C@@H](Cc3ccccc3)NC(=O)[C@H](CC(=O)O)NC(=O)CNC(=O)[C@H](CCCNC(=N)N)NC2=O)C(=O)NCCCC[C@@H]2NC(=O)[C@@H](Cc3ccccc3)NC(=O)[C@H](CC(=O)O)NC(=O)CNC(=O)[C@H](CCCNC(=N)N)NC2=O)C(=O)NCCCC[C@@H]2NC(=O)[C@@H](Cc3ccccc3)NC(=O)[C@H](CC(=O)O)NC(=O)CNC(=O)[C@H](CCCNC(=N)N)NC2=O)NC(=O)[C@@H](Cc2ccccc2)NC(=O)[C@H](CC(=O)O)NC(=O)CNC1=O [indium-111 labelled]  tissue uptake (athymic nude mice, female, U-87 MG glioma xenograft, U-87 MG tumour; intravenous, 3 µCi, 4 h): 8.49 ± 5.28 %ID/g
